Measured values gathered from unrelated publications.
Each line is one published result; not all experiments were run side by side. Values joined by “and” are separate records of one study, mostly repeats; a detail may differ. ± marks the error that the study gave.
WEE1/CRBN: WEE1/CRBN (Homo sapiens, UniProt P30291+Q96SW2)
OPN4: Melanopsin (OPN4, Homo sapiens, UniProt Q9UHM6)
RPA1 N-terminal domain: Replication protein A 70 kDa DNA-binding subunit, N-terminal domain (RPA1, Homo sapiens, UniProt P27694)

By UniProt entry, the sequences of proteins in these tests, tags left out. Residues count along the entry.
UniProt P30291, whole entry: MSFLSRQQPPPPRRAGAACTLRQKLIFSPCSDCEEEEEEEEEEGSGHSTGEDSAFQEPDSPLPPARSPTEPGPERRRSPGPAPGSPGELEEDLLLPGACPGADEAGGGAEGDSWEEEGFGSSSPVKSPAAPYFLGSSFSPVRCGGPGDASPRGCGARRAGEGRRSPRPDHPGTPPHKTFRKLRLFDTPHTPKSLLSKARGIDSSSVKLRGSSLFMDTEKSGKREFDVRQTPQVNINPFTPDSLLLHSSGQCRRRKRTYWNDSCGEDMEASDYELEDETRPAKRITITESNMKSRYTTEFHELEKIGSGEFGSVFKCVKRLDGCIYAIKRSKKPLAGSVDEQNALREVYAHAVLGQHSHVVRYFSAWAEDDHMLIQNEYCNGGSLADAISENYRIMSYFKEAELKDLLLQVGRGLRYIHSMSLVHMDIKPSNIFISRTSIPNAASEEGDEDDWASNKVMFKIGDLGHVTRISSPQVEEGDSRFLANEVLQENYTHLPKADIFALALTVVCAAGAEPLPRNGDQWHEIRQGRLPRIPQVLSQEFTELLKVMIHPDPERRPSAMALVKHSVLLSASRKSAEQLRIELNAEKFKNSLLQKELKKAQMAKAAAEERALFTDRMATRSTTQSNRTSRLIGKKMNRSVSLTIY
UniProt Q96SW2, whole entry: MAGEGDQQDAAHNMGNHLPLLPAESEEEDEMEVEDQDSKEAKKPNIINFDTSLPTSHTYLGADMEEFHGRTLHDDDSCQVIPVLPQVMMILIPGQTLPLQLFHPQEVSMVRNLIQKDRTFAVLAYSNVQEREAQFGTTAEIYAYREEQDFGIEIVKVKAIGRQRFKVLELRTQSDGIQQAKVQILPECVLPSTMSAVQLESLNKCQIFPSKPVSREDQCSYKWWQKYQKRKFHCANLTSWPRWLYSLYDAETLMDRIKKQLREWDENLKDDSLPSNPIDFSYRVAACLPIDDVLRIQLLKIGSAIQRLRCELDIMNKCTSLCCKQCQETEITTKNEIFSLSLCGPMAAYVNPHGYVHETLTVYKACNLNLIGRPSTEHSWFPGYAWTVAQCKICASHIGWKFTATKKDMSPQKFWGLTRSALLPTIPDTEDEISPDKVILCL
UniProt Q9UHM6, whole entry: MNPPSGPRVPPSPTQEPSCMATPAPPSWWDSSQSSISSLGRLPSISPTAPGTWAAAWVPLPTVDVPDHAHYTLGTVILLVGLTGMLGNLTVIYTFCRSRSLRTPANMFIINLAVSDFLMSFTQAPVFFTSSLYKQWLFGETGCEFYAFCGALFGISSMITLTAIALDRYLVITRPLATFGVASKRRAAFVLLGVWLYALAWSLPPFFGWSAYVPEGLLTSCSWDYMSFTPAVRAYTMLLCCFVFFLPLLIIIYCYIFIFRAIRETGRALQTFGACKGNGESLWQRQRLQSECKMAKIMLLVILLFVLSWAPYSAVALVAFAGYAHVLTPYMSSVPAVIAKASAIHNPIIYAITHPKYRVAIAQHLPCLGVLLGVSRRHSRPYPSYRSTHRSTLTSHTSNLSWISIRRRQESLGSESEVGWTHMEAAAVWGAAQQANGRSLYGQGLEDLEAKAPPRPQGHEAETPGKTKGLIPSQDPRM
UniProt Q86U86, whole entry Y262F, looked up: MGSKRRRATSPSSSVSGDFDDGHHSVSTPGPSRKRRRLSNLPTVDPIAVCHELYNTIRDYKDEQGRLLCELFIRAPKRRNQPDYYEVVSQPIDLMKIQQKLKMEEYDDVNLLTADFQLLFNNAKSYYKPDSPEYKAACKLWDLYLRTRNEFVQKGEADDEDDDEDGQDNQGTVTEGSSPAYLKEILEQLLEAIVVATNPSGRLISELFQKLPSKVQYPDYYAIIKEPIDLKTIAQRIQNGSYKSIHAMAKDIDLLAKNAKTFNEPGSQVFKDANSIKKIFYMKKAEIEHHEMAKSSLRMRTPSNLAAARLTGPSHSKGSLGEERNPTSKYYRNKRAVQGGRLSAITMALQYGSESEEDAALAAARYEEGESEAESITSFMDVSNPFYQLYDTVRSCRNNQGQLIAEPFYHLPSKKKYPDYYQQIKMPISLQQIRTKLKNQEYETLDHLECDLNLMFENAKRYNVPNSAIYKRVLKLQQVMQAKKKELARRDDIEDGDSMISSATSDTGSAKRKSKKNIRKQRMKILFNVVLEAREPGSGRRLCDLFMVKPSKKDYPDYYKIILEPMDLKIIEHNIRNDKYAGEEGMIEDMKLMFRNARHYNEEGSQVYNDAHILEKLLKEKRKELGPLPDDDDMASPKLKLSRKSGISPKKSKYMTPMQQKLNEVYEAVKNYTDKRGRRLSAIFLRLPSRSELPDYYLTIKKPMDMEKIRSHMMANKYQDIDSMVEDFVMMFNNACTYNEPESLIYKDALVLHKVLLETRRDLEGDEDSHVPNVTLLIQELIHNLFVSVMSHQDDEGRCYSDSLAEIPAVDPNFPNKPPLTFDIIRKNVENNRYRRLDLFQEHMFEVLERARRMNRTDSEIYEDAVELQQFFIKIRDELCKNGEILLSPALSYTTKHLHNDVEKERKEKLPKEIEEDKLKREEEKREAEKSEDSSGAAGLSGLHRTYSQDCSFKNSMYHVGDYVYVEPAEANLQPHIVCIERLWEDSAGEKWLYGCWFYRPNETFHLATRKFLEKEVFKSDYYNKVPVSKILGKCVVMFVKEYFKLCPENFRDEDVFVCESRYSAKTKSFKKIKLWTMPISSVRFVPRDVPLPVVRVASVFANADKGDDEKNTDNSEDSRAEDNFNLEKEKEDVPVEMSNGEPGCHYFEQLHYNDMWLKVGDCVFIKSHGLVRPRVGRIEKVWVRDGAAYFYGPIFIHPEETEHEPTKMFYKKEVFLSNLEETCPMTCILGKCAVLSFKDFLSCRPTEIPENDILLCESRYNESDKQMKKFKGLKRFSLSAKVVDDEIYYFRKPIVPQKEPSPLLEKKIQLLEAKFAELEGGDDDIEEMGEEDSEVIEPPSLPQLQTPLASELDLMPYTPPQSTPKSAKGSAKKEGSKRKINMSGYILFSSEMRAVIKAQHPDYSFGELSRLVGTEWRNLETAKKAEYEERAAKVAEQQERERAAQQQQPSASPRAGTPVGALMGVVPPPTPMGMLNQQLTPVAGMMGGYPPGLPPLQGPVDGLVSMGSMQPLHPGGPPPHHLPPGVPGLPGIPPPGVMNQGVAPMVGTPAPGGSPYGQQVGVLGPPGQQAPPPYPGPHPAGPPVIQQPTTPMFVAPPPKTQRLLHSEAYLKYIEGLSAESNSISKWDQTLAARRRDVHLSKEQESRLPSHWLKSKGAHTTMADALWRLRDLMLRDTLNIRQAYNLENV
UniProt Q07817, whole entry: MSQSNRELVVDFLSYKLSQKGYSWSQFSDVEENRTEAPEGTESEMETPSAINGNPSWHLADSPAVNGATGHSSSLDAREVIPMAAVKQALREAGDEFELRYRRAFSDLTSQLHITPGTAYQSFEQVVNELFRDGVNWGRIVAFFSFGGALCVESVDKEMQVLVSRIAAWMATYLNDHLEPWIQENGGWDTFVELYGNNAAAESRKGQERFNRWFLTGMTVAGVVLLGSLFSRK
UniProt O60502, whole entry: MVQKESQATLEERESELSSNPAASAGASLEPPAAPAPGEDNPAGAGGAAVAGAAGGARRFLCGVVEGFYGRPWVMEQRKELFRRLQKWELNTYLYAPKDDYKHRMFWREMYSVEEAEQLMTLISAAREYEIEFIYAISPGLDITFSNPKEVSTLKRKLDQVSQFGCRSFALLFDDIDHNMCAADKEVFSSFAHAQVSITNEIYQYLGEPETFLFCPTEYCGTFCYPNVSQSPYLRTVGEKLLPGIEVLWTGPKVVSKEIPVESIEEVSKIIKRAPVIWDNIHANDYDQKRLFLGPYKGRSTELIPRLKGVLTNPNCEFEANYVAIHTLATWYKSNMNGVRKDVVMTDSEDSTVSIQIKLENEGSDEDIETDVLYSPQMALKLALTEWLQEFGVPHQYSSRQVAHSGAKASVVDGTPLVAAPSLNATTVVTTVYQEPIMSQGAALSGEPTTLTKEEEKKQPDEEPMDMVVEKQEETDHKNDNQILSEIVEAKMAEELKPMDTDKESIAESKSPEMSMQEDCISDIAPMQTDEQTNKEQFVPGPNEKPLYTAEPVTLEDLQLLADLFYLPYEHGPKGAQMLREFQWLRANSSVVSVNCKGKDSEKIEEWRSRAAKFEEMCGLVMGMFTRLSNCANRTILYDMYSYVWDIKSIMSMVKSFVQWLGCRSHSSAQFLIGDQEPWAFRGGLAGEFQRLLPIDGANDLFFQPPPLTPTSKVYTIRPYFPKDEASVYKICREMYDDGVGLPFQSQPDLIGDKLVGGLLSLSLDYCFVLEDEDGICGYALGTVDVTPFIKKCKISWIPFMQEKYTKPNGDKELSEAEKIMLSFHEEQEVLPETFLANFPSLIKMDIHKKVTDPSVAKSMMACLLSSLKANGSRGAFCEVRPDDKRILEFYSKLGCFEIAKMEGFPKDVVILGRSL
UniProt P53779, 1-422 isoform 2: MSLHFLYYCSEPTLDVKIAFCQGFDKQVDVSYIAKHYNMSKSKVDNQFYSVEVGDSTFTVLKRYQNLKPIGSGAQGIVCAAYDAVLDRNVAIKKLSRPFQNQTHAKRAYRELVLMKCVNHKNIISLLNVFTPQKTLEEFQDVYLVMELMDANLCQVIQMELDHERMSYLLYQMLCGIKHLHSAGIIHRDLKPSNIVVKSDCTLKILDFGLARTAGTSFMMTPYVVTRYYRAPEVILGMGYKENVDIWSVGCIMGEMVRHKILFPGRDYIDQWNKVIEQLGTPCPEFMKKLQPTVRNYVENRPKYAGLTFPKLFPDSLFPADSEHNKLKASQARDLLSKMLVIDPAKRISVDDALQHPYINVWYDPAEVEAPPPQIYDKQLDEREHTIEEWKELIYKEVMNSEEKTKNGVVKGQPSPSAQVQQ
UniProt Q16539, whole entry: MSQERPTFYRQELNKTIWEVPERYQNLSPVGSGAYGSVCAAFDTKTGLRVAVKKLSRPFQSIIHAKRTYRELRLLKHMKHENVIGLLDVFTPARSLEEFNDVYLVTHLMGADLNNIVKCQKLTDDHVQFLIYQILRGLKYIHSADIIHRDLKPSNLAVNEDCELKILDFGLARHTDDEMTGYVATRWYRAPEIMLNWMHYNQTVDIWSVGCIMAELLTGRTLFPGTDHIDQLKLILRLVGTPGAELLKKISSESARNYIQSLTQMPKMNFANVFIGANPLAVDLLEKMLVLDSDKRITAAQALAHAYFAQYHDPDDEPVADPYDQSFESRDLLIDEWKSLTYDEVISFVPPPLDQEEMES
UniProt Q16531, whole entry partner: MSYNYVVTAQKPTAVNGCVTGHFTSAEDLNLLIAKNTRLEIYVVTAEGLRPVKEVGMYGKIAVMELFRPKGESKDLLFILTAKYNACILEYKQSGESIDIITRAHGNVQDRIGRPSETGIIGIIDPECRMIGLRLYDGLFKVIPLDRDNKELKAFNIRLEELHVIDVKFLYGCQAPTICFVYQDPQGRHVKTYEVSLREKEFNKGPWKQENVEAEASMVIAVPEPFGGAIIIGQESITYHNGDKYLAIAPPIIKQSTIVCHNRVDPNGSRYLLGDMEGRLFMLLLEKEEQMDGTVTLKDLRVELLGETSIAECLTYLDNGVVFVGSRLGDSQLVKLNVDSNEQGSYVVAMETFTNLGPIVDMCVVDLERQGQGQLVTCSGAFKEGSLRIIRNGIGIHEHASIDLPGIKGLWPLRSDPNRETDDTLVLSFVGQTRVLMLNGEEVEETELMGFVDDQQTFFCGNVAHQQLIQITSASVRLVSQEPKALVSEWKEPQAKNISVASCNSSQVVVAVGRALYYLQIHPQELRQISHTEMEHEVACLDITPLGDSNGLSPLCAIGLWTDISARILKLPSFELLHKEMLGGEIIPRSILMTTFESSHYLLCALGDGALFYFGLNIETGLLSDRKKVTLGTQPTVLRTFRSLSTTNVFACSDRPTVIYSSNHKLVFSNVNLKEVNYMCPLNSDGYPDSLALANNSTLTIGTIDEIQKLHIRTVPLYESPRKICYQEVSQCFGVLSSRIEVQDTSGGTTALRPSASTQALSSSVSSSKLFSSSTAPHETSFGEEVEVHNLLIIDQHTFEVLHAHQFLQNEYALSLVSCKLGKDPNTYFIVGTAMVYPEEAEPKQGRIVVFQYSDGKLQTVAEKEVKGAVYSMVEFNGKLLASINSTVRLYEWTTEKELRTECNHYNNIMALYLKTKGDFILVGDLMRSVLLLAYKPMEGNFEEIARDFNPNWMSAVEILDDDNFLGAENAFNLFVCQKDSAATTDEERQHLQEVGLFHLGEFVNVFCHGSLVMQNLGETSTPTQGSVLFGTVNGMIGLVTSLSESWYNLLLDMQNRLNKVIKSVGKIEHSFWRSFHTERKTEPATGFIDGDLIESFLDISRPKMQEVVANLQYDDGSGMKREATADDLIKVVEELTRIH

Compound	tested on	test	system	conditions	scale	quantity	value
Cc1c(=O)n(C)c(Nc2ccc(I)cc2F)c2c(=O)n(C3CC3)c(=O)n(-c3cccc(NC(=O)CCOCCOCCNC(=O)CCC4=[N+]5C(=Cc6ccc(-c7ccc[nH]7)n6[B-]5(F)F)C=C4)c3)c12	Dual specificity mitogen-activated protein kinase kinase 1 (MAP2K1, Homo sapiens, UniProt Q02750)	binding, NanoBRET	HEK-293T	wild-type MEK1-NanoLuc		EC50	9.9 ± 0.4 nM
Cc1cccc(C2NC(=O)c3c(Cl)cccc3N2)c1 (racemic)	Protein polybromo-1, BD2 (PBRM1, Homo sapiens, UniProt Q86U86, Y262F)	ITC		mutant		Kd	17000 ± 3000 nM
Nc1ncc(-c2ccc3ncnc(N4CCc5cc(F)c(Cl)cc54)c3c2)cn1			CD1 mouse, brain	oral, 100 mg/kg		Cmax	17400 ng/mL
CC(C)(C)Nc1c(-c2ccc3c(c2)CN(C2CCC(=O)NC2=O)C3=O)nc2ccccn12 (centres unmarked)	WEE1/CRBN	degrader, HiBiT luciferase	Jurkat (HiBiT-tagged)	5 h		DC50	3.1 ± 1.4 nM
COC(=O)[C@@H]1C(c2nc3cc(C(F)(F)F)ccc3s2)=Cc2cc3c(cc2[C@H]1c1cc(OC)c(OC)c(OC)c1)OCO3	Leishmania		mouse splenocytes		reference: CC50 over amastigote EC50	selectivity index	> 2.4
Cc1ncsc1-c1ccc([C@H](C)NC(=O)[C@@H]2C[C@@H](O)CN2C(=O)[C@@H](NC(=O)CCCCCCC(=O)N2CCN(C[C@]3(C)CCC(c4ccc(Cl)cc4)=C(CN4CCN(c5ccc(C(=O)NS(=O)(=O)c6ccc(N[C@H](CCN7CCOCC7)CSc7ccccc7)c(S(=O)(=O)C(F)(F)F)c6)cc5)CC4)C3)CC2)C(C)(C)C)cc1	Bcl-2-like protein 1 (BCL2L1, Homo sapiens, UniProt Q07817)	protein degradation, degrader, western blot	WI-38 non-senescent			DC50	4.81 nM
CC(=O)Nc1ncc(CN2CC[C@H](Oc3cccc(F)n3)C[C@@H]2C)s1 [isotope labelled]	Protein O-GlcNAcase (OGA, Homo sapiens, UniProt O60502)	saturation binding	human cortex homogenate	radiolabelled compound		Kd	2.2 ± 0.4 nM
COC(=O)[C@@]1(C)C=C(C(=O)Nc2cccc(C(=O)NC34CC(Nc5nccc(-c6cccnc6)n5)(C3)C4)c2)C(=O)CC1	Mitogen-activated protein kinase 10 (MAPK10, Homo sapiens, UniProt P53779)	enzyme activity, inhibitor		44.44 µM		remaining activity	0.0161 fraction of control
O=C1CCC(N2Cc3cc(-c4nc5ccccn5c4NC45CC6CC(CC(C6)C4)C5)ccc3C2=O)C(=O)N1 (centres unmarked)	WEE1/CRBN	degrader, HiBiT luciferase	Jurkat (HiBiT-tagged)	5 h		DC50	< 2 nM and 1.5 nM
CN(C)c1ccc(C#CCOC(=O)[C@@]2(C)C=C(C(=O)OC(C)(C)C)C(=O)CC2)cc1	Mitogen-activated protein kinase 14 (MAPK14, Homo sapiens, UniProt Q16539)	D-peptide displacement, fluorescence polarization				Ki	3900 ± 800 nM
O=C1CCC(N2Cc3cc(-c4nc5ccccn5c4Nc4ccc5c(c4)OCCO5)ccc3C2=O)C(=O)N1 (centres unmarked)	WEE1/CRBN	degrader, HiBiT luciferase	Jurkat (HiBiT-tagged)	5 h		DC50	28 ± 14 nM
COCCN1CCN(S(=O)(=O)c2cc(Cl)ccc2Cl)CC1	OPN4	calcium release, antagonist, FLIPR Fluo-4	CHO cells expressing human OPN4			Kb	3000 nM
Cc1ccc(C(=O)Nc2ccccc2C(=O)O)cc1S(=O)(=O)Nc1ccc(C(C)C)cc1	RPA1 N-terminal domain	binding, fluorescence polarisation competition		added: FITC-ATRIP probe		Kd	76000 ± 5500 nM
CN1CCN(S(=O)(=O)c2cc(Cl)ccc2Cl)CC1	OPN4	calcium release, antagonist, FLIPR Fluo-4	CHO cells expressing human OPN4			Kb	13000 nM
COc1cc([C@@H]2c3cc4c(cc3C=C(C=O)[C@H]2C(=O)OCc2ccc(CBr)cc2)OCO4)cc(OC)c1OC	Leishmania infantum	Alamar Blue	HepG2		reference: CC50 HepG2 over EC50 amastigotes	selectivity index	0.4
CC(C)(C)Nc1c(-c2ccc3c(c2)C(=O)N(C2CCC(=O)NC2=O)C3=O)nc2ccccn12 (centres unmarked)	WEE1/CRBN	degrader, HiBiT luciferase	Jurkat (HiBiT-tagged)	5 h		DC50	8.6 ± 2.5 nM
Cc1ccc(C(=O)Nc2ccccc2C(=O)O)cc1S(=O)(=O)NC1CCCCCC1	RPA1 N-terminal domain	binding, fluorescence polarisation competition		added: FITC-ATRIP probe		Kd	110000 ± 4000 nM

Repeated from above:
Compound	tested on	test	system	conditions	scale	quantity	value
Nc1ncc(-c2ccc3ncnc(N4CCc5cc(F)c(Cl)cc54)c3c2)cn1			CD1 mouse, brain	oral, 100 mg/kg		Cmax	17400 ng/mL
CN1CCN(S(=O)(=O)c2cc(Cl)ccc2Cl)CC1	OPN4	calcium release, antagonist, FLIPR Fluo-4	CHO cells expressing human OPN4			Kb	13000 nM
